Assay results collected from several papers.
Each line is one published result; not all experiments were run side by side. ± gives the spread as reported.
IDE: Insulin-degrading enzyme (IDE, Homo sapiens, UniProt P14735)
PYL4: PYL4 (Arabidopsis thaliana, UniProt O80920)
UniProt O80920, sequence (whole entry, looked up): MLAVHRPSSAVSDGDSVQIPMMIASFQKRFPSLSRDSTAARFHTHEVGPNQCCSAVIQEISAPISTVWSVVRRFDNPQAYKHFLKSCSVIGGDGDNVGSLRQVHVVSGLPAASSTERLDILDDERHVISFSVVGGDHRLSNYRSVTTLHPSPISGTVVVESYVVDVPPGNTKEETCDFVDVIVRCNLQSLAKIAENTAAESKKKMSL
FPR1: fMet-Leu-Phe receptor (FPR1, Homo sapiens, UniProt P21462)
UniProt P21462, sequence (whole entry, looked up): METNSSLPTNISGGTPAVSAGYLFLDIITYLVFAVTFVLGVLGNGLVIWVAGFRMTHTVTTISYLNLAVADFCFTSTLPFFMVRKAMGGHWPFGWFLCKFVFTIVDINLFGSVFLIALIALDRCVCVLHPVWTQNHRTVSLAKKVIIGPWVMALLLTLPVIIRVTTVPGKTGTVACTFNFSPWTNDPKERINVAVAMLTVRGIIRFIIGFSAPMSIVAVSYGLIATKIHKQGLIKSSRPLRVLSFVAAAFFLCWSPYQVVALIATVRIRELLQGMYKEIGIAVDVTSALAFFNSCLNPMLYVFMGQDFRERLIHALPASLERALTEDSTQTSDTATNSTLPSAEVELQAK
UniProt Q9H244, sequence (whole entry, looked up): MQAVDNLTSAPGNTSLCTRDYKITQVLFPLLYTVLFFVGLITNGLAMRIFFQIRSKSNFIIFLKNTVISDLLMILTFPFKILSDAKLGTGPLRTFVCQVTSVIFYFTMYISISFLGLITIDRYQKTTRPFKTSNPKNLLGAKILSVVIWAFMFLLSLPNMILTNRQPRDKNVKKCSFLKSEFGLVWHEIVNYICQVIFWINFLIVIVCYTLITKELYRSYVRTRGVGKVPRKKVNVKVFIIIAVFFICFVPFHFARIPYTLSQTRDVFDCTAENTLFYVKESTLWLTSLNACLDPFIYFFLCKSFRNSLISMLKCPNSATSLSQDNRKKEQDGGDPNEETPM
UniProt P30542, sequence (whole entry, looked up): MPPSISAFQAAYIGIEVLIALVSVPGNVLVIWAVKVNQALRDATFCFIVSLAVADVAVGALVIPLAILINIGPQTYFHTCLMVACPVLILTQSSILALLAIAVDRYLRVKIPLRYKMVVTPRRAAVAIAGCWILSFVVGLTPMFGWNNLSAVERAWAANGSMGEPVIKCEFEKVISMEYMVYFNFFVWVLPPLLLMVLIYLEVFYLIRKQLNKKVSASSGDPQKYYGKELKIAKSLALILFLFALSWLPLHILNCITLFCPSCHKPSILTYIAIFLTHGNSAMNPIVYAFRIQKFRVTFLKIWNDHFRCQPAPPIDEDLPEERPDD
UniProt P07550, sequence (whole entry, looked up): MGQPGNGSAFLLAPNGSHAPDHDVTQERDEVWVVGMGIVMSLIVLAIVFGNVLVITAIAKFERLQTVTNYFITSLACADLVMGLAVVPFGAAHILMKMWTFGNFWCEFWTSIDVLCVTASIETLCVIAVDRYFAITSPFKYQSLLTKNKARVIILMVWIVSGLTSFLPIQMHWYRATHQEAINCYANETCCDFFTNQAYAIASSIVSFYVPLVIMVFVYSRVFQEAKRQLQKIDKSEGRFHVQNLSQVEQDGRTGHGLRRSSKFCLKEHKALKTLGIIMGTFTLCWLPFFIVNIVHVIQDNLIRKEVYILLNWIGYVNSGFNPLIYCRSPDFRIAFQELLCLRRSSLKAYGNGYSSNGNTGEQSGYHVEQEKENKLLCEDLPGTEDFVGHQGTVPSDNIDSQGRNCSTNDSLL
UniProt P35396, sequence (whole entry, looked up): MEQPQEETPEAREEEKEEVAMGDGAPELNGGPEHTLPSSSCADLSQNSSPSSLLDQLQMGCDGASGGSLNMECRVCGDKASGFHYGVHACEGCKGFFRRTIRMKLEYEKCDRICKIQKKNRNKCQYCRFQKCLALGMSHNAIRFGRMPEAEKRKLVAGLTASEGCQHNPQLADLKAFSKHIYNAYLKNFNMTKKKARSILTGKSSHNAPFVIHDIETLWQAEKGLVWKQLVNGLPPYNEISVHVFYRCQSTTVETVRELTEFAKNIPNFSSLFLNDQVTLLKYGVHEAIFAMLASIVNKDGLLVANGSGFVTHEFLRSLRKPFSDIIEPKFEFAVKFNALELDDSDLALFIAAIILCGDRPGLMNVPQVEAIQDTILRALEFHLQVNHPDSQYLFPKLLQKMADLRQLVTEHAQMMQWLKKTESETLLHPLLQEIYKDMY
UniProt P10275, sequence (whole entry, looked up): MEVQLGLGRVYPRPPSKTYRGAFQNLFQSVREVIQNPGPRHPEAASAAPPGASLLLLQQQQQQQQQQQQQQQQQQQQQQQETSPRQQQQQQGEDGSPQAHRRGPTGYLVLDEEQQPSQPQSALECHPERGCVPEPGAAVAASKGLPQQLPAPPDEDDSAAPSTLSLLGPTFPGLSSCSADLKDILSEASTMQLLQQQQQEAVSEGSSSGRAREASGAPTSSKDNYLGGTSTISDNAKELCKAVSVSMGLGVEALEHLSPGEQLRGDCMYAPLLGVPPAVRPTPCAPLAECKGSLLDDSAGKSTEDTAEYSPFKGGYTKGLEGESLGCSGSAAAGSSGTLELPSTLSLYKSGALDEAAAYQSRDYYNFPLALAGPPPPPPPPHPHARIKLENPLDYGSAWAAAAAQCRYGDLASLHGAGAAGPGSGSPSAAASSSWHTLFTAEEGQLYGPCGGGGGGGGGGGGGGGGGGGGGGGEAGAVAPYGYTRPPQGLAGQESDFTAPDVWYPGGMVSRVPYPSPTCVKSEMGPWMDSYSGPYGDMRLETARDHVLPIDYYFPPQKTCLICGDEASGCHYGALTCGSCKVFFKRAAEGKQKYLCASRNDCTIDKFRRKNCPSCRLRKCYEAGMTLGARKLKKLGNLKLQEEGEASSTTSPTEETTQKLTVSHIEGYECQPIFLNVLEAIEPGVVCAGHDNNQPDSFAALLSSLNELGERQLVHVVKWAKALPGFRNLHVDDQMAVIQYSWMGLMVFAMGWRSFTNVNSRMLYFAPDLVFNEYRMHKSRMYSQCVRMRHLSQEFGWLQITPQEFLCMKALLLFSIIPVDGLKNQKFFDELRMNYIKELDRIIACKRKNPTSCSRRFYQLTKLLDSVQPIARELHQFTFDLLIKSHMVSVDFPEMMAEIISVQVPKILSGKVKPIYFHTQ

Compound | target | assay | test system | setting | EC50
CCO[C@H](COc1ccc(C(F)(F)F)cc1)CSc1ccc(OCC(=O)O)c(C)c1 | Ppard (Mus musculus, UniProt P35396) | reporter gene, agonist, luciferase reporter | mouse | serum-free | 300 nM
Cc1cccc(-c2ccc([C@@H]3[C@@H](CF)N4CCCCN(S(=O)(=O)c5ccccc5C(F)(F)F)C[C@@H]34)cc2)c1C | IDE | enzyme activity, inhibitor, fluorescence kinetic |  | with: Mca-RPPGFSAFK(Dnp)-OH substrate | 24 nM
Cn1cc2c(C(=O)O)ccc(NS(=O)(=O)c3ccc(OCC4CCC4)c(Cl)c3)c2n1 | ADRB2 (Homo sapiens, UniProt P07550) | antagonist |  |  | > 10000 nM
O=C(Cc1cc(C2CC2)c(-n2cc(CNC(=O)c3cccc4c3OC(F)(F)O4)nn2)c(C2CC2)c1)NC1(C(=O)O)CCCCC1 | PYL4 | phosphatase activity recovery, antagonist |  | with: HAB1, ABA 5000 nM | 726 ± 77 nM
N#Cc1ccc(C[C@H](Nc2nnc(-c3ccc(F)cc3)s2)C(=O)N2CCc3ccccc32)cc1 | FPR1 | calcium mobilization, agonist | HL-60 transfected with FPR1 | inactive up to 50 µM | > 50000 nM
Cc1cccc(-c2ccc([C@@H]3[C@@H](CO)N4C/C=C\CN(S(=O)(=O)c5cnc(C)n5C)C[C@@H]34)cc2)c1C | IDE | enzyme activity, inhibitor, fluorescence kinetic |  | with: Mca-RPPGFSAFK(Dnp)-OH substrate | 1 nM
Cn1cc(-c2cnc(N)n3nc(-c4ccco4)nc23)ccc1=O | ADORA1 (Homo sapiens, UniProt P30542) |  |  |  | > 100000 nM
NC(=O)CC[C@@H]1NC(=O)/C=C/C(=O)N[C@H](C(=O)NCCOCCOCCNC(=O)c2ccc3c(c2)C(=O)OC32c3ccc(O)cc3Oc3cc(O)ccc32)CCCCNC(=O)[C@@H](Cc2ccc(C(=O)c3ccccc3)cc2)NC(=O)[C@H](CC2CCCCC2)NC1=O | IDE | enzyme activity, inhibitor, fluorescence kinetic |  | with: Mca-RPPGFSAFK(Dnp)-OH substrate | 100 nM
CSc1nc(N)c2ncn([C@@H]3O[C@H](COP(=O)(O)OP(=O)(O)O)[C@@H](O)[C@H]3O)c2n1 | P2Y purinoceptor 12 (P2RY12, Homo sapiens, UniProt Q9H244) | agonist, cell-based |  |  | 0.944 nM
O=C(Cc1cc(C2CC2)c(-n2cc(CNC(=O)c3ccc4cccc(F)c4n3)nn2)c(C2CC2)c1)NC1(C(=O)O)CCCCC1 | PYL4 | phosphatase activity recovery, antagonist |  | with: HAB1, ABA 5000 nM | 138 ± 11 nM
CC(=O)Nc1ccc(S(=O)(=O)N2CCCCN3[C@H](CO)[C@@H](c4ccc(-c5cccc(C)c5C)cc4)[C@@H]3C2)c(C)c1 | IDE | enzyme activity, inhibitor, fluorescence kinetic |  | with: Mca-RPPGFSAFK(Dnp)-OH substrate | 1600 nM
N#Cc1ccc(C[C@@H](NC(=O)c2cc3ccccc3[nH]2)C(=O)N2CCc3ccccc32)cc1 | FPR1 | calcium mobilization, agonist | HL-60 transfected with FPR1 | inactive up to 50 µM | > 50000 nM
CCCCCCOC(=O)c1ccccc1C(=O)c1ccc(N(CC)CC)cc1O | Androgen receptor (AR, Homo sapiens, UniProt P10275) | reporter gene, agonist | GR knock-out cells |  | > 100000 nM

A few entries again:
Compound | target | assay | test system | setting | EC50
CCO[C@H](COc1ccc(C(F)(F)F)cc1)CSc1ccc(OCC(=O)O)c(C)c1 | Ppard (Mus musculus, UniProt P35396) | reporter gene, agonist, luciferase reporter | mouse | serum-free | 300 nM
N#Cc1ccc(C[C@H](Nc2nnc(-c3ccc(F)cc3)s2)C(=O)N2CCc3ccccc32)cc1 | FPR1 | calcium mobilization, agonist | HL-60 transfected with FPR1 | inactive up to 50 µM | > 50000 nM
